Assay results pooled from the literature.
A part holds a random share of what one study measured. Changes are numbered by the printed parent chain.

Sample 1
Target: Prothrombin, mature alpha-thrombin (F2, Homo sapiens, UniProt P00734)
Method: aptamer microarray, sandwich
Form: DNA with 2'F-ANA
Matrix: in vitro
Concentration: 200 nM
Notes: whole 15-mer aptamer, many near background
Added: Cy3 exosite-II aptamer, 400 nM
Reading: higher = stronger binding
Measurement: mean fluorescence intensity
Oligonucleotide: GGTTGGTGTGGTTGG
Modification = 2'F-ANA at 1 3 7 11 12 13; result = 433 a.u.
Modification = 2'F-ANA at 1 3 4 6 7 8 9 10 13 14; result = 51.3 a.u.
Modification = 2'F-ANA at 2 3 4 6 7 10 12; result = 339 a.u.
Modification = 2'F-ANA at 1 2 4 6 7 14; result = 52.5 a.u.
Modification = 2'F-ANA at 1 3 5 8 11 12 14; result = 56.3 a.u.
Modification = 2'F-ANA at 1 3 4 8 10 14 15; result = 49.7 a.u.
Modification = 2'F-ANA at 1 2 4 7 10 11 14 15; result = 47 a.u.
Modification = 2'F-ANA at 1 2 4 6 8 9 11 12 14 15; result = 54.8 a.u.
Modification = 2'F-ANA at 2 3 11 14; result = 437 a.u.
Modification = 2'F-ANA at 1 3 5 8 10 11 13 14; result = 49.4 a.u.
Modification = 2'F-ANA at 2 3 8 9 12 14; result = 504 a.u.
Modification = 2'F-ANA at 2 7 8 9 10 12 13 15; result = 189 a.u.
Modification = 2'F-ANA at 4 6 8 9 10 12 15; result = 91.6 a.u.
Modification = 2'F-ANA at 2 4 5 9 10 14 15; result = 45 a.u.
Modification = 2'F-ANA at 1 2 3 5 8 10 13; result = 46.2 a.u.
Modification = 2'F-ANA at 1 4 5 8 10 11 14 15; result = 48.9 a.u.
Modification = 2'F-ANA at 1 2 3 5 7 10 14; result = 47.7 a.u.
Modification = 2'F-ANA at 7 8 9 10 11 12 14 15; result = 110 a.u.
Modification = 2'F-ANA at 1 2 9 10 11 14 15; result = 107 a.u.
Modification = 2'F-ANA at 6 9 10 13 14 15; result = 101 a.u.
Modification = 2'F-ANA at 1 7 8 9 11 12 14 15; result = 71.6 a.u.
Modification = 2'F-ANA at 1 4 5 7 8 11 12 15; result = 91.2 a.u.
Modification = 2'F-ANA at 2 3 7 9 10 11 13 14; result = 338 a.u.
Modification = 2'F-ANA at 2 3 4 5 8 9 15; result = 92 a.u.

Sample 2
Target: CREB3L1, bZIP domain (human)
Method: DHFR protein complementation
Matrix: yeast
Notes: single substitutions, most at no-binding floor
Baseline: wild-type JUN-FOS pair
Reading: higher = stronger binding
Measurement: binding fitness
Starting sequence: JUN, bZIP domain (human); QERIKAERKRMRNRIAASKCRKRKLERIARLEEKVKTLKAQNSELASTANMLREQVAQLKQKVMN; partner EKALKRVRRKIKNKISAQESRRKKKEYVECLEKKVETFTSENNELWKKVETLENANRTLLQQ
Substitution = L38Q; result = -1.49 natural log
Substitution = A46E; result = -1.2 natural log
Substitution = A40E; result = -1.22 natural log
Substitution = V56Q; result = -1.46 natural log
Substitution = E54R; result = -1.51 natural log
Substitution = K39V; result = -1.49 natural log
Substitution = L52T; result = -1.49 natural log
Substitution = M51W; result = -1.3 natural log
Substitution = N42C; result = -1.38 natural log
Substitution = Q41F; result = -1.46 natural log
Substitution = E33S; result = -1.44 natural log
Substitution = S47C; result = -1.37 natural log
Substitution = S47D; result = -1.16 natural log

Sample 3
Target: Sal-like protein 4, full length isoform A (SALL4, Homo sapiens, UniProt Q9UJQ4, residues 1-1053)
Sequence of UniProt Q9UJQ4 (whole entry, looked up): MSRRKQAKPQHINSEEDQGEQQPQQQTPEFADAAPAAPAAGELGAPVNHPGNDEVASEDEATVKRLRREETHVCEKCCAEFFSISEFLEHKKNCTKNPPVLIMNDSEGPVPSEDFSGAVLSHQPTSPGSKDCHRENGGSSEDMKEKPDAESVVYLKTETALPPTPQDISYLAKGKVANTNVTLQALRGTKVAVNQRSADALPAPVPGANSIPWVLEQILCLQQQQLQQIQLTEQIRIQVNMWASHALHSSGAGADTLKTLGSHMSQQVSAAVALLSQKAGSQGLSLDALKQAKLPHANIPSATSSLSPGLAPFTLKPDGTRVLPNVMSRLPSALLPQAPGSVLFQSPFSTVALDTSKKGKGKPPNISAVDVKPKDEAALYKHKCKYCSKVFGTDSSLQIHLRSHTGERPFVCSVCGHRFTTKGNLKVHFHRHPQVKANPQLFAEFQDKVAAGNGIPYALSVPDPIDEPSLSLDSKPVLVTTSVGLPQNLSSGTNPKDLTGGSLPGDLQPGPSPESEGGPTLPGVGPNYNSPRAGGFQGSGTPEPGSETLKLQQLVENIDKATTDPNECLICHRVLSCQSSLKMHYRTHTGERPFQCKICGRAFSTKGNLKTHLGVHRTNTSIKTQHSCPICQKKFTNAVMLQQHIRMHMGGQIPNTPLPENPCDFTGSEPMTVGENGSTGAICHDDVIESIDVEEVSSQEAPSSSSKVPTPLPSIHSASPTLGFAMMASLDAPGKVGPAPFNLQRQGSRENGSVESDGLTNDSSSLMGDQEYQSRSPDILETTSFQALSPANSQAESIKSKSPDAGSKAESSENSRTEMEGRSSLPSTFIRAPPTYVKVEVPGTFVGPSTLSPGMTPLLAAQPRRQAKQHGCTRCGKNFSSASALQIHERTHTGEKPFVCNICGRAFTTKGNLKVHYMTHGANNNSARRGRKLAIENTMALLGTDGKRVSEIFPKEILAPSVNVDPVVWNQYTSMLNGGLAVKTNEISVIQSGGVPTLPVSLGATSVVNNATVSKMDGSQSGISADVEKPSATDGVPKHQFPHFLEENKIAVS
Method: universal PBM
Form: double-stranded DNA, one strand shown
Matrix: in vitro
Concentration: 600 nM
Notes: 8-mer, flanks averaged, mean of replicates
Reading: higher = stronger binding
Measurement: E-score
Oligonucleotide = ATGTGACC; result = 0.0405
Oligonucleotide = CTTACGAC; result = -0.0417
Oligonucleotide = ATGAGAAT; result = 0.187
Oligonucleotide = CGGTGACC; result = -0.32
Oligonucleotide = AAAAGCGT; result = 0.0739
Oligonucleotide = GAGGTGCC; result = -0.34
Oligonucleotide = GGAAAGAA; result = -0.0542
Oligonucleotide = CTGTAACC; result = -0.00983
Oligonucleotide = GACTTCAA; result = 0.0709
Oligonucleotide = CCCAATTA; result = 0.0875
Oligonucleotide = GGATTTGA; result = 0.0791
Oligonucleotide = CGAGAAAC; result = -0.0952
Oligonucleotide = ATAAGACG; result = 0.215
Oligonucleotide = CTCTCGCC; result = -0.331
Oligonucleotide = CTGCATAC; result = 0.0722
Oligonucleotide = ATCGCAGC; result = -0.0834
Oligonucleotide = AACCGTAC; result = -0.0364
Oligonucleotide = GATGCACA; result = 0.0356
Oligonucleotide = CGCAAGGC; result = -0.215
Oligonucleotide = ATGTTTTG; result = 0.254
Oligonucleotide = ACTTGCCC; result = -0.154
Oligonucleotide = CAGACTCG; result = -0.0812
Oligonucleotide = AACCTATT; result = 0.0948
Oligonucleotide = AGTTATTG; result = 0.296
Oligonucleotide = CAAAAGGC; result = -0.213

Sample 4
Target: ABI1, truncated, D143A, DHFR fusion (Arabidopsis thaliana)
Method: DHFR PCA, deep sequencing
Matrix: yeast
Notes: methotrexate growth selection, single substitutions
Added: (+)-ABA 0.11 µM
Baseline: wild-type fitted maximum
Reading: higher = stronger binding
Measurement: relative binding score
Starting sequence: PYL1, truncated, DHFR fusion (Arabidopsis thaliana); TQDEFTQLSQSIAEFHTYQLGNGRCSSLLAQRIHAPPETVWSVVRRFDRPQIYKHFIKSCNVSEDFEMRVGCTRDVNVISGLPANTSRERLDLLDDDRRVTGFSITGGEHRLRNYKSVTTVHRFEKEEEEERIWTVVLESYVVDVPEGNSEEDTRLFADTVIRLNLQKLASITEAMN
Substitution = R99P; result = -9.55%
Substitution = R163V; result = 15.7%
Substitution = I79M; result = 10.5%
Substitution = E125H; result = 40.1%
Substitution = P50D; result = -6.16%
Substitution = N77S; result = 52.8%
Substitution = V62T; result = 14.5%
Substitution = Q10K; result = 38.5%
Substitution = H16A; result = -6.1%

Excerpt of the above (sample 1):
Modification = 2'F-ANA at 2 4 5 9 10 14 15; result = 45 a.u.
Modification = 2'F-ANA at 1 2 4 7 10 11 14 15; result = 47 a.u.
Modification = 2'F-ANA at 2 3 8 9 12 14; result = 504 a.u.
Modification = 2'F-ANA at 1 2 3 5 7 10 14; result = 47.7 a.u.
Modification = 2'F-ANA at 1 2 9 10 11 14 15; result = 107 a.u.
Modification = 2'F-ANA at 6 9 10 13 14 15; result = 101 a.u.
